Assay results collected from several papers.
A part holds a random share of what one study measured. Substitutions count along the parent as printed.

Block 1 — method: RNAcompete; form: RNA; matrix: in vitro; concentration: 20 nM; notes: 7-mer, probes averaged, single round; relative to: mean of 7-mers; reading: higher = stronger binding; quantity: 7-mer Z-score
Target: PABPC1L2, full length, GST fusion (mouse, UniProt A0ABA7IW68)
Residues (chain): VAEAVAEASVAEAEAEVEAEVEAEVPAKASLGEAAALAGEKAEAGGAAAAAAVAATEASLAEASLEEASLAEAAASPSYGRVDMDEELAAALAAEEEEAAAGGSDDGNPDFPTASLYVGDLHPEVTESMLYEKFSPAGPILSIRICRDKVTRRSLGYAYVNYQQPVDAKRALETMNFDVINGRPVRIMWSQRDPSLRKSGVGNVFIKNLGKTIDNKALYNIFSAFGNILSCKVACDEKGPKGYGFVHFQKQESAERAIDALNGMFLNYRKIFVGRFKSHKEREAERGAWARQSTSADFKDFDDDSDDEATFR
GAGCUCA: -0.389
ACCUCUU: -0.273
CGUUAAC: -0.287
UUAGGAA: 0.0877
GGACUGA: 0.138
ACUGCUC: -0.161
CUGAUGA: -0.222

Block 2 — target: CCNA1, cyclin fold, Cln2 fusion (human); method: yeast growth competition, sequencing; matrix: yeast; notes: weak parent motif; relative to: not given; reading: higher = stronger binding; quantity: normalised enrichment score
Parent: WEE1 docking peptide (human); HKTFRKLRLFDTP; partner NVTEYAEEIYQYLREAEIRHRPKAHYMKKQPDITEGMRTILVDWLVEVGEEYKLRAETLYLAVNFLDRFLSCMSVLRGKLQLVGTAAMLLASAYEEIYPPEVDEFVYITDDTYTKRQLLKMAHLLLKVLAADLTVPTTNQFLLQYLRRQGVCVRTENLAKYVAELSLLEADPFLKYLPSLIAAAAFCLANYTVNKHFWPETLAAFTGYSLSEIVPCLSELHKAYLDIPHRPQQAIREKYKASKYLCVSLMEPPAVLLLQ
QKTFRKLRLFDTP [H1Q]: 0.597
HKTARKLRLFDTP [F4A]: 0.286
HKTFCKLRLFDTP [R5C]: -0.114
HKTFRKLREFDTP [L9E]: -0.453
HKTFRKLRNFDTP [L9N]: 0.3
HKTFMKLRLFDTP [R5M]: 0.286

Block 3 — method: protein binding microarray; form: double-stranded DNA, one strand shown; matrix: in vitro; concentration: not given; relative to: not given; reading: higher = stronger binding; quantity: E-score
Target: Histone acetyltransferase KAT6A, winged helix 1, GST fusion (KAT6A, Homo sapiens, UniProt Q92794, residues 1-85)
Notes: 8-mer, flanks averaged, mean of 2 arrays, mostly near background
Target sequence (chain): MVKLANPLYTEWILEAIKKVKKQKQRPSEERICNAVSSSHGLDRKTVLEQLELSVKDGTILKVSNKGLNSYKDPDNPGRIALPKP
GTATATAA: -0.157
ACTCCCCA: -0.308
AGCTAGCG: 0.242
AGCCTAAT: -0.246
CTTCCCAC: 0.0364
TGACTGCA: -0.144
GCACGGGA: 0.293
CTTGAAAA: -0.184
AAGGGCAT: -0.277

Further values, each from its own experiment
PhoQ, residues 284 288 289 292 302 303 SSTLSG
fold induction (PhoP, residues 12 14 15 18 19 LYFRQ (Escherichia coli, UniProt P23836); Sort-seq, measured: YFP reporter; E. coli; PhoQ-PhoP variant library, with: 10 µM Mg2+; relative to: high Mg2+ state, higher = stronger signaling): 4.74

Some of these lines once more (block 2):
QKTFRKLRLFDTP [H1Q]: 0.597
HKTFRKLREFDTP [L9E]: -0.453
